Values quoted from earlier work that unrelated publications cite.
Numbers after ± are the reported error.
PIK3C2G: Phosphatidylinositol 3-kinase C2 domain-containing subunit gamma (PIK3C2G, Homo sapiens, UniProt O75747)
Chain of UniProt O75747 (whole entry, looked up): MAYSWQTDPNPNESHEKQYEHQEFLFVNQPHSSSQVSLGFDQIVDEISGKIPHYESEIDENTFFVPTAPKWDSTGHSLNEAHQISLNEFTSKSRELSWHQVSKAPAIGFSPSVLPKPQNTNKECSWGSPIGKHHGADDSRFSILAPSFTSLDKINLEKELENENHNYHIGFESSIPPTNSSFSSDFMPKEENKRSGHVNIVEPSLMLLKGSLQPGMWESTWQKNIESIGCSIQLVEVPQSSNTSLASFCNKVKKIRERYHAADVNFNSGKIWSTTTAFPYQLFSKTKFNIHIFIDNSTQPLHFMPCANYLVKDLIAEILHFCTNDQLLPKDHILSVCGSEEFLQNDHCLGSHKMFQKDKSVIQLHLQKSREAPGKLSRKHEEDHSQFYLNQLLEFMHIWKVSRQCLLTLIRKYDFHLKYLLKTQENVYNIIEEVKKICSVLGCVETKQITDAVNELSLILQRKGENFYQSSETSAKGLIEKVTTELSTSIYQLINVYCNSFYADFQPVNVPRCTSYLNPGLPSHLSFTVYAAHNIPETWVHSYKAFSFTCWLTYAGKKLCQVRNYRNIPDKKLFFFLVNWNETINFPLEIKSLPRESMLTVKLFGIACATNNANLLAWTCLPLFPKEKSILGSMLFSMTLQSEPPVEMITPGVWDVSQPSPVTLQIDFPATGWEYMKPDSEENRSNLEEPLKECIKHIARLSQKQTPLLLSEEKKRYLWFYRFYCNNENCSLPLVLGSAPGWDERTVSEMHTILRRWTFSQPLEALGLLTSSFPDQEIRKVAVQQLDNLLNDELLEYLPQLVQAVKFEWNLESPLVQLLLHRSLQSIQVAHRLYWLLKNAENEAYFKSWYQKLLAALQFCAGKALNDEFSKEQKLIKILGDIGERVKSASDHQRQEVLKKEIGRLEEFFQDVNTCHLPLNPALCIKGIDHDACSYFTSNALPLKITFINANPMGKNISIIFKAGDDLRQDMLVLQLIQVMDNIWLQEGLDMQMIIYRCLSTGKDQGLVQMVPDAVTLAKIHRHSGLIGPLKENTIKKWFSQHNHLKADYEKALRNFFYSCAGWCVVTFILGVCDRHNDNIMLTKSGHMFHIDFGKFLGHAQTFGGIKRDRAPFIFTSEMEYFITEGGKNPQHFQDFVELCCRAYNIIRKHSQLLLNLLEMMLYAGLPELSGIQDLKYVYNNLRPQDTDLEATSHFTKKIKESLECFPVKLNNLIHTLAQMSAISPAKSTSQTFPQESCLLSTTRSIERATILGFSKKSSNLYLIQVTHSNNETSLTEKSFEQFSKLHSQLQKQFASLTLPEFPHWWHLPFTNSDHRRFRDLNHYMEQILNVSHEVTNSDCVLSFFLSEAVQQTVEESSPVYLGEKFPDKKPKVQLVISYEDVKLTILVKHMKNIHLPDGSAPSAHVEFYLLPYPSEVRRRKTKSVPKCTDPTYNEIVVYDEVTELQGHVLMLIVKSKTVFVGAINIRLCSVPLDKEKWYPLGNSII
Chain of UniProt P07333 (whole entry, looked up): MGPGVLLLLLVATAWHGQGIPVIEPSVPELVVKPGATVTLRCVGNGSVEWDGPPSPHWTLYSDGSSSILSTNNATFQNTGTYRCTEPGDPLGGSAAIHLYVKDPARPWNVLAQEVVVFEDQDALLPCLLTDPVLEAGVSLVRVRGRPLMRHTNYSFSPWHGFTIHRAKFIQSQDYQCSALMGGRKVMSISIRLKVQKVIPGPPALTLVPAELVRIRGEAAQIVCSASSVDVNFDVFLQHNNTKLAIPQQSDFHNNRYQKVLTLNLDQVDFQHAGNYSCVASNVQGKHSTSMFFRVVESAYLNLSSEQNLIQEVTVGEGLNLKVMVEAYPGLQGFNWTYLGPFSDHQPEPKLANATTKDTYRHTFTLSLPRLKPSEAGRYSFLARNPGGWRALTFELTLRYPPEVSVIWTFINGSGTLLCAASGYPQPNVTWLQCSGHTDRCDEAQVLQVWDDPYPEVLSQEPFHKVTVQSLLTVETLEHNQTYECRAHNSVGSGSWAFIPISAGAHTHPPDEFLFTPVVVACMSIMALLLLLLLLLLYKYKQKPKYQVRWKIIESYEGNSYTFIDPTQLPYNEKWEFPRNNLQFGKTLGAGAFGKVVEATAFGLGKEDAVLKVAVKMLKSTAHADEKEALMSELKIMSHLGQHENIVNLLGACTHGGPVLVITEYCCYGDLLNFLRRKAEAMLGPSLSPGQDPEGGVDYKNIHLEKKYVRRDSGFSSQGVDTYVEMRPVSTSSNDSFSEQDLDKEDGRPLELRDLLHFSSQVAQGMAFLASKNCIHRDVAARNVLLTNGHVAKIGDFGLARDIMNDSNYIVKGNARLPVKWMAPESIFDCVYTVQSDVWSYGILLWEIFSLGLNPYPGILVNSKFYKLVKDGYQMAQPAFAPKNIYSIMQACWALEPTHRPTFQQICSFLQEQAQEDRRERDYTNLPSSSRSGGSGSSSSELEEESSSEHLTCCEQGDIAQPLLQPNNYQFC
Chain of UniProt Q9UBL9 (whole entry, looked up): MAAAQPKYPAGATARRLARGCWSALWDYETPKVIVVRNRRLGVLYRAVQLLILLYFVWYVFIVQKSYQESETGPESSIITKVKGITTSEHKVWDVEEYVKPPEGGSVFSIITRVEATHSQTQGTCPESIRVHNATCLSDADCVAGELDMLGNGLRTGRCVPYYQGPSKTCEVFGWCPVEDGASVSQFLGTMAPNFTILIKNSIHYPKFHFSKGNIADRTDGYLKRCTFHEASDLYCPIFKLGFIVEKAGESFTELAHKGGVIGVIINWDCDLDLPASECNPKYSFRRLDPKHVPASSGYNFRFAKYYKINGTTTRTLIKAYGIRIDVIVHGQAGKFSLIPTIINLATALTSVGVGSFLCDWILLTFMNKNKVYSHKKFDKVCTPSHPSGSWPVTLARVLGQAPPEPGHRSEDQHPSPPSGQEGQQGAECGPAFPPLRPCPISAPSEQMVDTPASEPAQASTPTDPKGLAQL

| SMILES | target or system | assay | test system | conditions | scale | endpoint | result |
| --- | --- | --- | --- | --- | --- | --- | --- |
| CCCCCN1C[C@H](O)[C@@H](O)[C@H](O)[C@@H]1CO | lactase |  |  | concentration not given |  | inhibition | inactive |
| CC1(C)S[C@@H]2[C@H](NC(=O)[C@H](N)c3ccccc3)C(=O)N2[C@H]1C(=O)O | Klebsiella pneumoniae |  | clinical isolate RKI-No_328/16 |  |  | MIC | > 16 µg/mL |
| Nc1ncnc2c1ncn2[C@@H]1O[C@H](COP(=O)(O)OP(=O)(O)OP(=O)(O)O)[C@@H](O)[C@H]1O | P2X purinoceptor 2 (P2RX2, Homo sapiens, UniProt Q9UBL9) | agonist |  | 0.2 µM |  | activation | < 10% |
| CC(=O)N[C@@H](COP(=O)(O)O)C(=O)N1CCC[C@H]1C(=O)N[C@@H](C)C(=O)N[C@@H](Cc1ccccc1)C(N)=O | Breast cancer type 1 susceptibility protein, tandem BRCT domains (BRCA1, Homo sapiens, UniProt P38398) | isothermal titration calorimetry |  |  |  | ΔH | -14.7 ± 0.8 kcal/mol |
| CCN(c1cc(-c2ccc(CN3CCOCC3)cc2)cc(C(=O)NCc2c(C)cc(C)[nH]c2=O)c1C)C1CCOCC1 | Protein arginine N-methyltransferase 8 (PRMT8, Homo sapiens, UniProt Q9NR22) | enzyme activity, inhibitor |  | 1 µM |  | inhibition | 7 ± 3% |
| C[N+]1(C)CCC(OC(=O)C(c2ccccc2)c2ccccc2)CC1.[I-] | Muscarinic acetylcholine receptor M1 (CHRM1, Homo sapiens, UniProt P11229) | binding |  |  |  | Hill coefficient | 1 |
| C=CC(=O)N1CCC(C(=O)NCC(=O)N2CCN(c3nc(-c4cnc(N)nc4C(F)F)nc(N4CCOCC4)n3)CC2)CC1 | PIK3C2G | kinase activity |  | 1 µM |  | remaining activity | 16% |
| O=C(c1ccc(F)cc1)C1CCN(CCn2c(=O)[nH]c3ccccc3c2=O)CC1 | 5-hydroxytryptamine receptor 2B (HTR2B, Homo sapiens, UniProt P41595) |  |  | historical reference value |  | Hill coefficient | 0.6 |
| COc1ccn2c(c1)nc1c2c(=O)[nH]c(=O)n1Cc1ccccc1 | Adenosine receptor A1 (ADORA1, Homo sapiens, UniProt P30542) |  |  | 10 µM, with: [3H]DPCPX |  | radioligand displacement | 49% |
| Cc1cc(NC(=O)c2cccc(NC(=O)/C=C/CN(C)C)c2)ccc1Nc1nccc(-c2cccnc2)n1 | Cyclin-dependent kinase 7 (CDK7, Homo sapiens, UniProt P50613) | enzyme activity, inhibitor |  | 1 µM | relative to: vehicle | remaining activity | 39% |
| CNC(C)C1CCC(N)C(OC2C(N)CC(N)C(OC3OCC(C)(O)C(NC)C3O)C2O)O1 (stereo not drawn) | Klebsiella pneumoniae |  | clinical isolate RKI 373/16-1 |  |  | MIC | ≤ 0.5 µg/mL |
| CO[C@@H]1O[C@H](CO)[C@H](O)[C@H](O)[C@H]1O | PA-I galactophilic lectin (lecA, Pseudomonas aeruginosa, UniProt Q05097) | ITC |  |  |  | -TΔS | 3.59 kcal/mol |
| COc1cc(O)c(CC=C(C)C)c(O)c1C(=O)/C=C/c1ccc(O)cc1 | Xenopus laevis deiodinase type 3 |  |  | mean across 12 runs |  | Hill slope | -1.01 ± 0.12 |
| CC(C)[C@@H](CN1CC[C@@](C)(c2cccc(O)c2)[C@@H](C)C1)NC(=O)[C@H]1Cc2ccc(O)cc2CN1 | delta opioid receptor (human) | antagonist |  | with: DPDPE |  | Ke | 76.4 ± 2.7 nM |
| Cc1c(CN2CCN(C(=O)[C@H](C)O)CC2)sc2c(N3CCOCC3)nc(-c3cnc(N)nc3)nc12 | Macrophage colony-stimulating factor 1 receptor, autoinhibited (CSF1R, Homo sapiens, UniProt P07333) | KinomeScan competition binding |  | 10 µM |  | remaining binding | 19% |
| Nc1cc(C(F)(F)F)c(-c2nc(N3CCOCC3)nc(N3CCOCC3)n2)cn1 | Mitogen-activated protein kinase kinase kinase 2 (MAP3K2, Homo sapiens, UniProt Q9Y2U5) | enzyme activity |  | 10 µM | relative to: untreated | remaining activity | 100% |
| O=C(Nc1nc2ccccc2[nH]1)c1ccccc1 | luciferase |  |  | 10 µM, PubChem AID 1006 |  | response | 88% |
| Cc1nc(NC(=O)N2CCC[C@H]2C(N)=O)sc1-c1ccnc(C(C)(C)C(F)(F)F)c1 | PIK3C2G | KinomeScan competition binding |  | 10 µM |  | remaining binding | 9.6% |

Some of these lines once more:
| SMILES | target or system | assay | test system | conditions | scale | endpoint | result |
| --- | --- | --- | --- | --- | --- | --- | --- |
| CO[C@@H]1O[C@H](CO)[C@H](O)[C@H](O)[C@H]1O | PA-I galactophilic lectin (lecA, Pseudomonas aeruginosa, UniProt Q05097) | ITC |  |  |  | -TΔS | 3.59 kcal/mol |
